Measurements collected from several papers.
Protocols differ between the studies behind these lines. Numbers after ± are the reported error.

Structure (SMILES)	tested on	test	system	conditions	how to read	measurement	value
CC(C)[C@H](NC(=O)[C@@H]1CCCN1C(=O)[C@H](CCCNC(=N)N)NC(=O)[C@H](CS)NC(=O)[C@H](Cc1c[nH]c2ccccc12)NC(=O)[C@H](CCCNC(=N)N)NC(=O)[C@@H](Cc1ccccc1)NC(=O)[C@H](Cc1c[nH]cn1)NC(=O)[C@H](CCC(=O)O)NC(=O)[C@H](CS)NC(=O)[C@H](CS)NC(=O)[C@H](CCCCN)NC(=O)[C@@H]1CC(=O)N[C@@H](CCCNC(=N)N)C(=O)N[C@@H](C(C)C)C(=O)N[C@@H](CC(=O)O)C(=O)N[C@H](Cc2ccc(O)cc2)C(=O)N1)C(N)=O [technetium-99m labelled]	–	–	C57 mouse, female, B16/F1 melanoma	intravenous, 2 h, added: NDP-MSH 10 µg co-injected	baseline: tumour over liver	uptake ratio	1.14
CNC(=O)c1cc(Oc2ccc(NC(=O)Nc3ccc(Cl)c(C(F)(F)F)c3)cc2)ccn1	–	LC-MS/MS	nude mouse subcutaneous tumour model, tumour tissue	intratumoral, 2 mg/kg, PDC 5 miR-3609	–	t1/2	2640 ± 374 min
Cn1c(-c2ccc(C(N)=O)cc2F)nnc1C(C)(C)Oc1c(F)cc(Cl)cc1F	–	–	young non-Japanese adults, plasma	oral, 50 mg single dose, day 1, high-dose multiple-dose study	–	half-life range over subjects	535 to 1660 min
CN(C)Cc1cc(OCCC[18F])ccc1Sc1ccccc1N	SERT	–	male Sprague Dawley rat, control, hypothalamus	intravenous, 60 min	–	tissue uptake	0.66 ± 0.09 %ID/g
S=C(NCCCc1c[nH]cn1)NCCCN(Cc1ccc(Cl)c(Cl)c1)c1ccc(Br)cn1	–	–	male C57BL/6 mouse, plasma	intraperitoneal, 30 mg/kg, 2 h	–	concentration	3430 ng/mL
CCOc1ccc(Cc2cc([C@]34OC[C@](CO)(O3)[C@@H](O)[C@H](O)[C@H]4O)ccc2Cl)cc1	–	–	human, type 2 diabetes, mild renal impairment, plasma	oral, 15 mg	–	AUC	1910 ng·h/mL
O=C(O)CCCCCCC(=O)O	–	–	human hemodialysis patients, plasma ultrafiltrate	pre-treatment	baseline: hemodialysis over normal subjects	free concentration ratio	30
CS(=O)(=O)c1ccc(-c2cnc(N)c(-c3ccc(C(F)(F)F)nc3)c2)cc1	–	–	pregnant female Sprague-Dawley rat, plasma	oral, 3 mg/kg/day, gestation day 6	–	AUC(0-t)	3750 ng·h/mL
CC(=O)N[C@@H](Cc1ccccc1)C(=O)N[C@H]1CCCNC(=O)[C@H](CCCNC(=N)N)NC(=O)[C@H](Cc2c[nH]c3ccccc23)NC(=O)[C@@H](CC2CCCCC2)NC(=O)[C@@H]2CCCN2C1=O	–	–	C57BL/6J mice, plasma	subcutaneous, 1 mg/kg	–	elimination half-life	19.5 min
CO[C@]12C[C@@H](COC(=O)c3cncc(Br)c3)CN(C)[C@@H]1Cc1cn(C)c3cccc2c13	–	cytochrome c release, ELISA	BALB/cByJ female mouse liver mitochondria	30 min	baseline: alamethicin maximal release	EC20	> 200 µM
Cc1nc2cccc(OCC(C)(C)C(=O)NC(C)C)c2c(N)c1C(=O)O	–	–	male Sprague-Dawley rat, plasma	oral gavage, 30 mg/kg, day 7	–	Cmax	74.5 ± 16.2 ng/mL
Cc1cc(C(=O)NC(C)(C)COc2cccc3c2C(N)=NS(=O)(=O)N3)cc(C)n1	–	–	male Sprague-Dawley rat, plasma	oral, 30 mg/kg, single dose	–	bioavailability	0.22%
COc1c(O)cc2oc3cc(O)cc(O)c3c(=O)c2c1C/C=C(\C)CCC=C(C)C	–	–	mouse, plasma	oral, 700 mg/kg, virgin coconut oil suspension	–	absorption rate constant	1.07 ± 0.87 h⁻¹
NC(=O)CC[C@@H]1NC(=O)[C@H](Cc2ccccc2)NC(=O)[C@H](Cc2ccc(O)cc2)NC(=O)CCSSC[C@@H](C(=O)N2CCC[C@H]2C(=O)N[C@H](CCCN=C(N)N)C(=O)NCC(N)=O)NC(=O)[C@H](CC(N)=O)NC1=O	–	UPLC-MS/MS	human plasma	3.05 pg/mL, 30 days, -20 °C	–	long-term stability	109%
CCCCC1(CCCC)CN(c2ccccc2)c2cc(SC)c(OCC(=O)N[C@@H](C(=O)NCC(=O)O)c3ccccc3)cc2S(=O)(=O)C1	–	–	human, plasma	oral, 20 mg once daily, day 14, geometric mean	–	AUC(0-t)	3.45 ng·h/mL
COc1cccc(N2CCN(C3=Nc4c(F)cccc4[C@H](CC(=O)O)N3c3cc(C(F)(F)F)ccc3OC)CC2)c1	–	–	healthy women, plasma	intravenous infusion, 240 mg, day 1, single dose, 30-min infusion	–	clearance	137 ± 28.7 mL/min
CO[C@H]1C[C@@H]2CC[C@@H](C)[C@@](O)(O2)C(=O)C(=O)N2CCCC[C@H]2C(=O)O[C@H]([C@H](C)C[C@@H]2CC[C@@H](OC(=O)C(C)(CO)CO)[C@H](OC)C2)CC(=O)[C@H](C)/C=C(\C)[C@@H](O)[C@@H](OC)C(=O)[C@H](C)C[C@H](C)/C=C/C=C/C=C/1C	–	–	human, whole blood	intravenous, 35 mg/m2 weekly, cycle 5, added: valproic acid	–	median Cmax	1090 ng/mL
O=C(O)COC[C@H]1CC[C@H](COC(=O)N(c2ccccc2)c2ccc(Cl)cc2)CC1	–	–	human	oral, 400 µg once daily, day 21	–	AUC(0-tau) at steady state	308 ng·h/mL
Cc1c(Cl)c(C)[n+]([O-])c(Cl)c1-c1noc(-c2cc(O)c(O)c([N+](=O)[O-])c2)n1	–	glucuronidation, substrate	human intestinal microsomes	pH 7.5	–	Km	41.9 ± 26.9 µM

Structure (SMILES)	tested on	test	system	conditions	how to read	measurement	value
C[C@]12CC[C@@H]3c4ccc(O)cc4CC[C@H]3[C@@H]1C[C@@H](O)[C@@H]2O	–	GC-MS	breast cancer women on NSAI, serum	vaginal, 0.03 mg daily, 24 h, day 28	–	mean serum concentration	0 ng/mL
CS(=O)(=O)n1cc2c(n1)CN([C@H]1CO[C@H](c3cc(F)ccc3F)[C@@H](N)C1)C2	–	–	healthy male human, plasma	oral, 50 mg, fasted single dose	–	AUC(0-last)	41 µM·h
Cc1nc(Nc2ncc(C(=O)Nc3c(C)cccc3Cl)s2)cc(N2CCN(CCO)CC2)n1	–	–	male C57BL/6 mouse wild type, plasma	oral, 10 mg/kg	–	AUC(0-inf)	442 ± 152 ng·h/mL
C[C@](N)(Cc1ccc(O)c(O)c1)C(=O)O	–	mitochondrial swelling	BALB/cByJ female mouse liver mitochondria	30 min, added: succinate + rotenone	baseline: CaCl2 maximal swelling	EC20	> 400 µM
CCCC[C@H](NC(C)=O)C(=O)N[C@H]1CCC(=O)NC[C@@H](C(=O)N[C@@H](Cc2c[nH]c3ccccc23)C(N)=O)NC(=O)[C@H](CCCNC(=N)N)NC(=O)[C@@H](Cc2ccccc2)NC(=O)[C@H](Cc2c[nH]cn2)NC1=O	–	–	beagle dog, male, plasma	subcutaneous, 40.0 mg/kg daily, day 14	–	Tmax	30 min
CCOC1=CC(=O)C2=NC(C)(C)C=C(C)C2=C1	–	LC-MS/MS	piglets, liver	oral, 50 mg/kg feed of ethoxyquin, 42 days, after glucuronidase	–	residue concentration	29.4 ± 9.7 ng/g
CC[C@H](C)[C@@H]1NC(=O)[C@@H]2CSSC[C@H](NC(=O)[C@H](C(C)C)NC(=O)[C@H]([C@@H](C)CC)NC(=O)[C@H](C(C)C)NC(=O)[C@@H](NC(=O)[C@H](CCCCN)NC(=O)[C@@H](N)CCCNC(=N)N)CSSC[C@@H](C(=O)N[C@@H](CCCNC(=N)N)C(=O)O)NC(=O)[C@H](CC(C)C)NC(=O)[C@H]([C@@H](C)CC)NC1=O)C(=O)N[C@@H](CCCNC(=N)N)C(=O)N[C@@H](CCCNC(=N)N)C(=O)N[C@@H](CC(N)=O)C(=O)N[C@@H](CCCNC(=N)N)C(=O)N[C@@H](CCCNC(=N)N)C(=O)N2	–	LC-MS	PBS	0.1 mg/mL	–	single disulfide form	8%
CC1=C(CC(=O)O)c2cc(F)ccc2/C1=C\c1ccc([S+](C)[O-])cc1 (centres unmarked)	–	cytochrome c release, ELISA	BALB/cByJ female mouse liver mitochondria	30 min	baseline: alamethicin maximal release	EC20	> 200 µM
CCCC[C@@H]1NC(=O)[C@@H](NC(=O)[C@H](CCC(=O)O)NC(=O)CNC(=O)CN2CCN(CC(=O)O)CCN(CC(=O)O)CCN(CC(=O)O)CC2)CCCCNC(=O)C[C@@H](C(N)=O)NC(=O)[C@H](C(C)C)NC(=O)[C@@H]2CCCN2C(=O)[C@H](CCCNC(=N)N)NC(=O)CNC(=O)[C@H](Cc2c[nH]c3ccccc23)NC(=O)[C@H](CCCNC(=N)N)NC(=O)[C@@H](Cc2ccccc2)NC(=O)[C@H](Cc2c[nH]cn2)NC(=O)[C@H](CCC(=O)O)NC1=O [indium-111 labelled]	–	–	normal C57 mice, bone	intravenous, 0.037 MBq, 24 h	–	tissue uptake	0.03 ± 0.01 %ID/g
[H]/N=C(/N)N[C@H]1[C@H](O)[C@@H](O)[C@H](O[C@@H]2O[C@@H](C)[C@](O)(C=O)[C@H]2O[C@@H]2O[C@@H](CO)[C@H](O)[C@@H](O)[C@@H]2NC)[C@@H](N/C(N)=N\[H])[C@@H]1O	–	mitochondrial swelling	BALB/cByJ female mouse liver mitochondria	30 min, added: succinate + rotenone	baseline: CaCl2 maximal swelling	EC20	418 µM
CCCCCCCCCCCCCCC[C@H](O)[C@@H](N)CO	–	–	human, phase I, plasma	intravenous, 930 mg/m^2, day 1, monotherapy	–	AUC	105 µM·h
COc1ccc(-c2ccc3c(N4CCOC[C@@H]4C)nc(N4CCOC[C@@H]4C)nc3n2)cc1CO	–	–	mice, plasma	intraperitoneal, 10 mg/kg	–	apparent clearance (CL/F)	7.6 mL/h
Nc1ccn([C@@H]2CS[C@H](CO)O2)c(=O)n1	–	mitochondrial swelling	BALB/cByJ female mouse liver mitochondria	30 min, added: succinate + rotenone	baseline: CaCl2 maximal swelling	EC20	> 400 µM
C#Cc1cccc(Nc2ncnc3cc(OCCOC)c(OCCOC)cc23)c1	–	–	Sprague-Dawley rat female, serum	oral, 6 mg/kg daily	–	time to therapeutic level	~18 h
O=C(c1cccnc1-c1ccncc1)N1CCC(O)(Cc2ccccc2)CC1	–	–	healthy human, plasma	oral, 100 mg once daily, day 14, arithmetic mean	–	AUCinf	509 ng·h/mL
CN1C(C(=O)Nc2ccccn2)=C(O)c2ccccc2S1(=O)=O	–	mitochondrial swelling	BALB/cByJ female mouse liver mitochondria	30 min, added: succinate + rotenone	baseline: CaCl2 maximal swelling	EC20	> 200 µM
CC(=O)O[C@H]1C(=O)[C@@]2(C)[C@H]([C@H](OC(=O)c3ccccc3)[C@]3(O)C[C@H](OC(=O)[C@H](O)[C@@H](NC(=O)c4ccccc4)c4ccccc4)C(C)=C1C3(C)C)[C@]1(OC(C)=O)CO[C@@H]1C[C@@H]2O	–	–	patients	i.v., 200 mg/m^2, 3 h, added: lenvatinib 4 mg twice daily, carboplatin	–	end-of-infusion concentration	7270 ± 2100 ng/mL
COC(=O)c1ccccc1-c1c2ccc(=O)cc-2oc2c1ccc1cccc(N(C)C)c12	–	–	aqueous NaOH 10% DMSO	pH 12.1, conjugate base	–	absorption maximum	530 nm
COc1cccc(-c2ccc(NC(=O)C3=C(C(=O)O)CCC3)c(F)c2)c1	–	–	male human, plasma	oral, 20 mg, single dose, fasted, healthy volunteers	–	Vd/F	10.2 L

Repeated from above:
Structure (SMILES)	tested on	test	system	conditions	how to read	measurement	value
COc1ccc(-c2ccc3c(N4CCOC[C@@H]4C)nc(N4CCOC[C@@H]4C)nc3n2)cc1CO	–	–	mice, plasma	intraperitoneal, 10 mg/kg	–	apparent clearance (CL/F)	7.6 mL/h
C[C@](N)(Cc1ccc(O)c(O)c1)C(=O)O	–	mitochondrial swelling	BALB/cByJ female mouse liver mitochondria	30 min, added: succinate + rotenone	baseline: CaCl2 maximal swelling	EC20	> 400 µM
CCOc1ccc(Cc2cc([C@]34OC[C@](CO)(O3)[C@@H](O)[C@H](O)[C@H]4O)ccc2Cl)cc1	–	–	human, type 2 diabetes, mild renal impairment, plasma	oral, 15 mg	–	AUC	1910 ng·h/mL
CN(C)Cc1cc(OCCC[18F])ccc1Sc1ccccc1N	SERT	–	male Sprague Dawley rat, control, hypothalamus	intravenous, 60 min	–	tissue uptake	0.66 ± 0.09 %ID/g
CC[C@H](C)[C@@H]1NC(=O)[C@@H]2CSSC[C@H](NC(=O)[C@H](C(C)C)NC(=O)[C@H]([C@@H](C)CC)NC(=O)[C@H](C(C)C)NC(=O)[C@@H](NC(=O)[C@H](CCCCN)NC(=O)[C@@H](N)CCCNC(=N)N)CSSC[C@@H](C(=O)N[C@@H](CCCNC(=N)N)C(=O)O)NC(=O)[C@H](CC(C)C)NC(=O)[C@H]([C@@H](C)CC)NC1=O)C(=O)N[C@@H](CCCNC(=N)N)C(=O)N[C@@H](CCCNC(=N)N)C(=O)N[C@@H](CC(N)=O)C(=O)N[C@@H](CCCNC(=N)N)C(=O)N[C@@H](CCCNC(=N)N)C(=O)N2	–	LC-MS	PBS	0.1 mg/mL	–	single disulfide form	8%
CC(C)[C@H](NC(=O)[C@@H]1CCCN1C(=O)[C@H](CCCNC(=N)N)NC(=O)[C@H](CS)NC(=O)[C@H](Cc1c[nH]c2ccccc12)NC(=O)[C@H](CCCNC(=N)N)NC(=O)[C@@H](Cc1ccccc1)NC(=O)[C@H](Cc1c[nH]cn1)NC(=O)[C@H](CCC(=O)O)NC(=O)[C@H](CS)NC(=O)[C@H](CS)NC(=O)[C@H](CCCCN)NC(=O)[C@@H]1CC(=O)N[C@@H](CCCNC(=N)N)C(=O)N[C@@H](C(C)C)C(=O)N[C@@H](CC(=O)O)C(=O)N[C@H](Cc2ccc(O)cc2)C(=O)N1)C(N)=O [technetium-99m labelled]	–	–	C57 mouse, female, B16/F1 melanoma	intravenous, 2 h, added: NDP-MSH 10 µg co-injected	baseline: tumour over liver	uptake ratio	1.14
